Assay results pooled from the literature.
A part holds a random share of what one study measured. Changes are numbered by the printed parent chain.
UniProt Q8WVN8, sequence (whole entry, looked up): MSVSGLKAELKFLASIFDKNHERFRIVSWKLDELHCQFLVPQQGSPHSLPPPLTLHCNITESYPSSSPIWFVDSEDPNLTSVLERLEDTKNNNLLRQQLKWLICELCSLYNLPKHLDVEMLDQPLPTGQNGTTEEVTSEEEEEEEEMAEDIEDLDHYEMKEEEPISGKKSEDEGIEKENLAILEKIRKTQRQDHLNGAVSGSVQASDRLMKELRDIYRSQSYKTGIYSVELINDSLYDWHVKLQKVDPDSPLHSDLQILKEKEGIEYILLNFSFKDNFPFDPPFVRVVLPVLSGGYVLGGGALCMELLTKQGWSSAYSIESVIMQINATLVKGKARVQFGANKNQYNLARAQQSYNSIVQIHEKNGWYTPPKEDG
UniProt O14933, sequence (whole entry, looked up): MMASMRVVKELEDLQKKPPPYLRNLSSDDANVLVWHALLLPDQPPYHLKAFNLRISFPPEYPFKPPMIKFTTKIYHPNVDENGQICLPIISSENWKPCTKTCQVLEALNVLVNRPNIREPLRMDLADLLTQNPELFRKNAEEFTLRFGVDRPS
UniProt Q5VVX9, sequence (whole entry, looked up): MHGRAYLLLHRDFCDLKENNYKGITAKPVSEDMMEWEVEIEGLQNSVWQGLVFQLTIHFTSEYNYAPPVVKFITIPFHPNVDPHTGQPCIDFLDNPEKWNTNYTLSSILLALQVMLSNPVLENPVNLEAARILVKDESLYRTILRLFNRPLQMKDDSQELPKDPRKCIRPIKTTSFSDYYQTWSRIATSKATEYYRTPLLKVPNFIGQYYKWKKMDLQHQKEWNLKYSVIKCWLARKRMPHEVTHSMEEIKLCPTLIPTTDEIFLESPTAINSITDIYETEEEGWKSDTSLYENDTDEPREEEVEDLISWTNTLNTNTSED
UniProt Q15819, sequence (whole entry, looked up): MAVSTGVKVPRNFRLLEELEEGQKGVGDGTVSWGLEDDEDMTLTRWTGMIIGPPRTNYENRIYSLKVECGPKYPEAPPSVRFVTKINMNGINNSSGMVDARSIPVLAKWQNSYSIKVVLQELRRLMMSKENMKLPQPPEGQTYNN
UniProt P51965, sequence (whole entry, looked up): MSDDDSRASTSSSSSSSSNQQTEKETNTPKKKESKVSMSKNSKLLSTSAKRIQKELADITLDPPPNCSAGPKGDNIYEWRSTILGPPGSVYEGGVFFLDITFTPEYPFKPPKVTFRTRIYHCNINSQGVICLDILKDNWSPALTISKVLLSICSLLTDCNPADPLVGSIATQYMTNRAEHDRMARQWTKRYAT
UniProt Q96LR5, sequence (whole entry, looked up): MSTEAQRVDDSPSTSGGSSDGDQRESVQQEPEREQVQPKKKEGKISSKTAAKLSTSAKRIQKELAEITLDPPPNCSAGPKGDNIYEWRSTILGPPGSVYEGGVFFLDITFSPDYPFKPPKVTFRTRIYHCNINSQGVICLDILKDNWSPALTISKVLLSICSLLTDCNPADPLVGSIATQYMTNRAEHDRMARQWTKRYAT

Block 1 — Sequence: B1 (TRIM37 RING domain); method: yeast two-hybrid; matrix: yeast; setting: mostly zero background; reference: not given; reading: higher = stronger interaction
B1: TRIM37 RING domain (UniProt O94972); chain SVESIAEVFRCFICMEKLRDARLCPHCSKLCCFSCIRRWLTEQRAQCPHCRAPLQLRELVN
target | lacZ reporter activity
UBE2Q2 UBC core domain (UniProt Q8WVN8) | 0
UBE2E1 UBC core domain (UniProt P51965) | 0
UBE2L6 UBC core domain (UniProt O14933) | 0
UBE2V2 UBC core domain (UniProt Q15819) | 0
UBE2E2 UBC core domain (UniProt Q96LR5) | 0
UBE2U UBC core domain (UniProt Q5VVX9) | 4990

Block 2 — method: EMSA with sequencing; form: double-stranded DNA, one strand shown; matrix: in vitro; tested at: 10 and 20 nM; reference: negative control set to 0; reading: higher = stronger binding
Target: Hepatocyte nuclear factor 3-alpha (Foxa1, Mus musculus, UniProt P35582, residues 1-468, full length assumed)
UniProt P35582, sequence (whole entry, looked up): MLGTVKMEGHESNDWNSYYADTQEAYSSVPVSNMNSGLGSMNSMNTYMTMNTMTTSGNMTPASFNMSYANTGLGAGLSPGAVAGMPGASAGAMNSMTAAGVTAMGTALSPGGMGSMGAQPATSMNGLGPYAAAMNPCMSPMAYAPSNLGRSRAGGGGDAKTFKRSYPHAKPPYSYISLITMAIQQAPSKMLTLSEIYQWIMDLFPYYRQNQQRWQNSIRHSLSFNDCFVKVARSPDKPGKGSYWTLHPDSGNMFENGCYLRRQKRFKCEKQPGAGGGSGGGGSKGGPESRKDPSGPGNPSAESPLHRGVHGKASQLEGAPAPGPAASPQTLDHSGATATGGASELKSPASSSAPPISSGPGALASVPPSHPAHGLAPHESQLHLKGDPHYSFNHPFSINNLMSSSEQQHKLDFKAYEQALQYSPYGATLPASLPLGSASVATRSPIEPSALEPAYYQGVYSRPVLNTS
Setting: whole designed probe, mean of two concentrations, ends assumed
Shared flanks, not repeated: GTGAGCGGTGCCCATTGATGGGGAAC … TTTCACTGGGATCGTGGGGAC
Oligonucleotide | normalised bound fraction [ratio]
ATCTTCCCCCTCTTCCTTGCCCCACCAGCTCACCTTCCCGGGTTGTTTACTTTGAGCAAAGTAAACAAAGCCGGCATTCGTTAACCCTCTTCTGGCGCAAACTGCCAGAGCAAACAGATCTAACATGGTCCTTTGGCGACGCCAGGCTCCGGGAGAGCAAAGCACCGTGTCAGGGCCATGATCCGGGGTGGCC | 0.543
CACTAGCCAAGCAAATGCTACCTTTCCTAAATTACGCCGTGGTATTGTGTACGACAGCAGCAGGGTTGCTATTTTAAAATGGGATTGCGTAAAATAAACATGTGCCCAGATGCTAAGTTGATGAACAGGAAGTATTAATTGATGCTCTGGTACGGCCTCGTGCTTTCCAGTGCTTCCATTTGTGTGACGATCC | 0.25
CTGTTCCAGACCCTAGTCTTTCAATCTAATGTTTATACACAAATCTAGATTCAGATATCTATTTTGAATTTCATTTAGGTTTTTGTTTCTAAGTAATCTTCAGAGGATTAGTTTGGGTTTTGTTCACCCATGTCTTTTAAAGTTCTAAAGAACCTTTGTATCTAAGCTCAACTTTATATTTAAGTTCAACTGC | 0.0362
GACACCATTTCGAACAAAACAAAACAGTTGCTCCCTTCCCTCTTGTTCCTCCCACTATTGCTGTCATTGCAAGCTCCTAGGAGCTGCCCTGTAAATTACATTGCAGTGGGCATGACTCAGGGAAGCAGCAGGCAGGGAGGAGGATGGGAAGCAAGAACCCAGCTGGGGCTAAGCAAGGTCCAGCTCATAATAT | -0.0274
ATCTTCCCCCTCTTCCTTGCCCCACCAGCTCACCTACGGGGGTTATTTGCAGATAGGAAAATAAATAAAGCCGGCATTCGTTAACGCAGTTCACGCGCATACTGCTGTTTGCTCTGCATGAATCATGGTCCTTACGCGACGCCAGGCTCCGGGAGAGCAAAGCACCGTGTCAGGCGCATGATCCGGGGTGGCC | 0.36
TTCTCTTTTTAACTTTCTGCATTTCATTTGCTCTAGGTTCATGTCTTACATCTAGCTAGTATTTTTTTCACTTCAATCTGCGATTTTAACTCATTGTTTACATAGTATTTCCATCTATTTTTCTATAAGACGTTCTCGTTCTCATCTAATGAACACTTTTATTAGTTAGACTTAACTTATAGTTGCATTTTTA | 0.472
GGCTCCAAACGGCTGAATCAGCATTTTCAGAAACAAAGTGTTCTAGGCCTGGCCTTTTAAACAGCAGCAACGAGCGTTGTGCAATAAAACGCATATTTACTCACGAGCTCTCCTTGTTTTGGTCTTTCCCCCCTCCCCCCCATCTCTTGAATGAAACTGGGCACCAAGTTTGCAAGAAAATATTCTTTCAAAC | 0.11
TTTTTTCTGTACAGGGAAAAATAGTGAATATTTCAAAATTGTGAAACAAAGAGTCTCTGTGGCAACTACTCATTAGACAGTTGCATAACATATGCAAACAAATGAGTGTGTCTGTGTTCCAATAAAACTGTATTTACAAAAGCAGAAGGCCACCCATGTGCCAATGTCCAAAGTTTCTCAACCAACCCCTGGT | 0.412

Block 3 — method: protein-binding microarray; form: double-stranded DNA, one strand shown; matrix: in vitro; tested at: 2200 nM top; setting: 60-bp whole probe; together with: salmon DNA 0.4 mg/ml; reference: random background probes; reading: higher = stronger binding
Target: Interferon regulatory factor 7, full length, phosphomimetic (IRF7, Homo sapiens, UniProt Q92985, residues 1-503, S471D/S472D/S475D/S476D/S477D/S483D/S484D/S487D)
Shared flanks, not repeated: GCCTAGCAC … GTGCTAGGTCTTGATTCGCTTGACGCTGCTG
Residues (chain): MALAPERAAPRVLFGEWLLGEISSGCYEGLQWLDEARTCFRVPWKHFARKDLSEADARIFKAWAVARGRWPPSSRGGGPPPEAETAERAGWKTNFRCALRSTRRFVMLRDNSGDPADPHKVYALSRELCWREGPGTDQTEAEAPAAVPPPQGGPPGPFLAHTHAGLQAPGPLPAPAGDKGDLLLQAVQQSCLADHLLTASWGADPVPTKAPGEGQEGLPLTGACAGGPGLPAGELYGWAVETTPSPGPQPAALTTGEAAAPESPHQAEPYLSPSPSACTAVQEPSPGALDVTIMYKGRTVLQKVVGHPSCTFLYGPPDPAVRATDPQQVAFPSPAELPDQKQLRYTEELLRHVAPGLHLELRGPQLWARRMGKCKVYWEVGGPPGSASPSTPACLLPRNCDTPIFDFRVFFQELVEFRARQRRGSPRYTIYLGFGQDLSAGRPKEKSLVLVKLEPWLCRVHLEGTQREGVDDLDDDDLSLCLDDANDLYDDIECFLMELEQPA
Oligonucleotide | fitted relative affinity
GACGGTCTCGGTCTCCGGAC | -0.0161 z-score
TCACTCCTCCTTCTCTAACT | 2.71 z-score
TCATACCTGAATATCTTACT | 0.73 z-score
GCACTTTGGGAGGCCGAGGC | 0.458 z-score
GACGATTACAGTCTCGAGAC | 0.369 z-score
GACGATTTCCTTTCCCTGAC | 3.04 z-score
GACGGTATCCTTTTCCTGAA | 1.16 z-score
TTAGGTTTCCTTTACCTTTA | 1.94 z-score

Further values, each from its own experiment — starting sequence: viral docking peptide; KGVKRKLFAEDSS
Change | target | test | test system | setting | scale | endpoint | value
S12H | CCNE1, cyclin fold, Cln2 fusion (human) | yeast growth competition, sequencing | yeast | strong parent motif | reference: not given, higher = stronger binding | normalised enrichment score | 7.15

Repeated from above (block 2):
Oligonucleotide | normalised bound fraction [ratio]
ATCTTCCCCCTCTTCCTTGCCCCACCAGCTCACCTACGGGGGTTATTTGCAGATAGGAAAATAAATAAAGCCGGCATTCGTTAACGCAGTTCACGCGCATACTGCTGTTTGCTCTGCATGAATCATGGTCCTTACGCGACGCCAGGCTCCGGGAGAGCAAAGCACCGTGTCAGGCGCATGATCCGGGGTGGCC | 0.36
CTGTTCCAGACCCTAGTCTTTCAATCTAATGTTTATACACAAATCTAGATTCAGATATCTATTTTGAATTTCATTTAGGTTTTTGTTTCTAAGTAATCTTCAGAGGATTAGTTTGGGTTTTGTTCACCCATGTCTTTTAAAGTTCTAAAGAACCTTTGTATCTAAGCTCAACTTTATATTTAAGTTCAACTGC | 0.0362
CACTAGCCAAGCAAATGCTACCTTTCCTAAATTACGCCGTGGTATTGTGTACGACAGCAGCAGGGTTGCTATTTTAAAATGGGATTGCGTAAAATAAACATGTGCCCAGATGCTAAGTTGATGAACAGGAAGTATTAATTGATGCTCTGGTACGGCCTCGTGCTTTCCAGTGCTTCCATTTGTGTGACGATCC | 0.25
